Published values gathered from unrelated publications.
Lines come from different studies, so protocols differ. “And” joins repeats or separate records; there may be more than shown. Numbers after ± are the reported error. ≈ marks a conversion by molar mass, not a printed value.

The tracer uptake of O=C(O)CCC(NP(=O)(O)OCCC[C@@H](NC(=O)CCC(NC(=O)CCCCCNC(=O)c1ccc([18F])cc1)C(=O)O)C(=O)O)C(=O)O (stereo partly shown) is reported as 0.1 %ID/g (CWR22Rv1 tumour model; host not given, muscle; intravenous, 2 h, tumour-bearing).
CN[C@](C)(C[18F])C(=O)O gave a tracer uptake of 38 %ID/g (SK-OV-3 tumour model; host not given, pancreas; 30 min, tumour-bearing).
With CC(C)C[C@H](NC(=O)[C@H](CCCCN)NC(=O)[C@H](CCC(=O)O)NC(=O)[C@H](C)NC(=O)[C@@H](NC(=O)[C@H](CCCCN)NC(=O)[C@H](CC(=O)O)NC(=O)[C@H](Cc1ccc(O)cc1)NC(=O)[C@H](Cc1ccccc1)NC(=O)[C@H](C)NC(=O)[C@H](CCCCN)NC(=O)[C@H](CC(C)C)NC(=O)[C@H](Cc1c[nH]c2ccccc12)NC(=O)[C@@H](N)CC(=O)O)C(C)C)C(=O)N[C@@H](CCCCN)C(=O)N[C@@H](CCC(=O)O)C(=O)N[C@@H](C)C(=O)N[C@@H](Cc1ccccc1)C(=O)N1CCC[C@H]1C(=O)N[C@@H](CC(=O)O)C(=O)N[C@@H](Cc1c[nH]c2ccccc12)C(=O)N[C@@H](C)C(=O)N[C@@H](CCCCN)C(=O)N[C@@H](C)C(=O)N[C@@H](C)C(=O)N[C@@H](Cc1ccc(O)cc1)C(=O)N[C@@H](CC(=O)O)C(=O)N[C@@H](CCCCN)C(=O)N[C@@H](C)C(=O)N[C@@H](C)C(=O)N[C@@H](CCC(=O)O)C(=O)N[C@@H](CCCCN)C(=O)N[C@@H](C)C(=O)N[C@@H](CCCCN)C(=O)N[C@@H](CCC(=O)O)C(=O)N[C@@H](C)C(=O)N[C@@H](C)C(=O)O the Tmax was 0 h (cynomolgus monkey male, plasma; intravenous infusion, 75 mg/kg every other day, day 27).
With CC(C)C1=C(OC(=O)CCc2ccccc2)C(=O)C2=C(C=C[C@H]3C(C)(C)CCC[C@]23C)C1=O the mortality was 13.6% (Artemia salina, artificial seawater; 100 ppm, 24 h).
[11CH3]n1c(=O)n(CCCO)c(=O)c2c1nc(Oc1cccc(OC(F)(F)F)c1)n2Cc1ccc(Cl)cc1 has a tracer uptake of 0.52 ± 0.16 %ID/g (ex vivo biodistribution; Sprague Dawley rat, thymus; 5 min post injection).
CSCC[C@@H]1NC(=O)[C@@H]2CSSC[C@H](NC(=O)[C@H](CO)NC(=O)[C@H](C)N)C(=O)N[C@@H](CCCNC(=N)N)C(=O)N[C@@H]([C@@H](C)O)C(=O)N3CCC[C@H]3C(=O)N[C@@H](CCCCN)C(=O)N[C@@H](CC(=O)O)C(=O)N[C@H]3CSSC[C@H](NC(=O)[C@H](CCCCN)NC(=O)[C@H](CCCNC(=N)N)NC(=O)[C@H](CC(N)=O)NC1=O)C(=O)N[C@@H](CCCCN)C(=O)N[C@H]1CSSC[C@H](NC(=O)[C@@H]4CCCN4C(=O)[C@H](CC(=O)O)NC(=O)[C@H](C)NC3=O)C(=O)N[C@@H](C)C(=O)N[C@@H](CCCCN)C(=O)N[C@@H](CCC(=O)O)C(=O)N[C@@H]([C@@H](C)O)C(=O)NCC(=O)N[C@@H](CSSC[C@@H](C(N)=O)NC(=O)[C@H](CCCNC(=N)N)NC(=O)[C@H](CC(N)=O)NC1=O)C(=O)N1CCC[C@H]1C(=O)N[C@@H](Cc1ccc(O)cc1)C(=O)NCC(=O)N[C@@H](CCCCN)C(=O)N2 gave a Potassium of 4.68 mmol/L (DA rat pristane-induced arthritis, serum; subcutaneous, 0.1 mg/kg every other day, 21 days).
COc1cc(C(=O)NCCOCCOCCOCCNC(=O)c2ccc([18F])nc2)ccc1NC(=O)C1NC(CC(C)(C)C)C(C#N)(c2ccc(Cl)cc2F)C1c1cccc(Cl)c1F (stereo not shown) gave a tracer uptake of 0.85 %ID/g (SJSA-1 tumour model; host not given, muscle; 1 h, tumour-bearing).
COC(=O)C[C@](O)(CCCC(C)(C)OC(C)=O)C(=O)O[C@@H]1C(OC)=C[C@]23CCCN2CCc2cc4c(cc2[C@H]13)OCO4 — result for tissue concentration: “not detected” (CD1 mouse, heart; subcutaneous, 1 mg/kg, 24 h, below quantification limit 1.00 ng/mL).
With CC(C)COC1O[C@@H]2O[C@@]3(C)CC[C@H]4[C@H](C)CCC([C@H]1C)[C@@]24OO3 (stereo partly shown) the dead embryos was 0 count (Tg(fli1:EGFP) zebrafish embryos; 25 µg/mL, up to 48 hpf).
CN(C)CC1CCCCC1(O)c1cccc(O)c1 (stereo not shown) — result for “Papp B to A”: 16.2 ± 0.5 ×10⁻⁶ cm/s (P-glycoprotein; Caco-2 TC7; 1 µM, 3 h, pH 7.4, with: elacridar 4 µM).
COc1cc(NC(=O)C(=O)c2c(C)n(Cc3ccc(Cl)cc3)c3ccc(C)cc23)ccn1 gave a t1/2 of 11.2 h and 14.4 h and 16.6 h and 27.1 h and 16.5 h and 18.3 h (cynomolgus monkey, male, plasma; oral, 10 mg/kg).
For CCCCCCCCC(=O)NCc1ccc(O)c(OC)c1, the IC50 was 0.203 µg/mL (≈ 0.69 µM) (mouse mAb 1-F12; antibody binding, indirect competitive ELISA; with: coating antigen 4-OVA).
For CC(C)(CCCC/C=C/CCCCCC(C)(C)C(=O)O)C(=O)O, the AUC(0-t) was 534 µg·h/mL (beagle dog, plasma; intravenous, 5 mg/kg).
For CCN(Cc1ccccc1)C(=O)CCc1nc(CN2CCN(C(=O)Cc3ccc(OC)c(OC)c3)CC2)no1, the onset day was 11 days (cold withdrawal threshold, cold plate; mouse CCI model; 1 mg/kg, 4 °C, dosing from day 11).
Nc1ccc(OC(=O)NC2CCCCC2)cc1-c1ccccc1 — result for “log hydrolysis rate constant”: -0.86 (rat liver S9 fraction; with: NADPH-regenerating system).
For CC[C@H](C)[C@H](NC(=O)[C@H](Cc1ccccc1)NC(=O)[C@H](CC(=O)O)NC(=O)[C@@H]1CCNC(=O)NCC[C@H](NC(=O)[C@H](CC(C)C)NC(=O)[C@H](CCCNC(=N)N)NC(=O)[C@H](CCSC)NC(=O)[C@H](C)N)C(=O)N[C@@H](CCCCN)C(=O)N[C@@H](Cc2ccccc2)C(=O)N[C@@H](Cc2ccccc2)C(=O)N1)C(=O)N[C@@H](CC(C)C)C(=O)N[C@@H](CCC(N)=O)C(=O)N[C@@H](CCCNC(=N)N)C(=O)N[C@@H](CCCCN)C(=O)N[C@@H](CCCCN)C(=O)O, the helicity was 18.9% (circular dichroism; 20% TFE in PBS; 200 µM, pH 7.4, 25 °C).
The concentration of CCN(CCCCOc1ccc(CCC(=O)N2CCC(Cc3ccccc3)CC2)cc1OC)Cc1ccccc1 is reported as 301 ng/g (Sprague-Dawley rats, both sexes, brain; oral, 25 mg/kg, 6 h).
With CC(C)C[C@@H](NC(=O)[C@@H](CCCNC(=N)N)NC(=O)[C@@H](Cc1c[nH]cn1)NC(=O)[C@@H](Cc1c[nH]c2ccccc12)NC(=O)[C@@H](Cc1c[nH]cn1)NC(=O)[C@@H](Cc1ccccc1)NC(=O)[C@H](NC(=O)[C@@H](Cc1ccc(O)cc1)NC(=O)CNC(=O)CNC(=O)CCOCCOCCOCCNC(=O)CN1CCN(CC(=O)O)CCN(CC(=O)O)CC1)[C@H](C)O)C(=O)N[C@H](CC(N)=O)C(=O)N1CCC[C@@H]1C(=O)O [gallium-68 labelled] the blood half-life was 0.45 h (male C57BL/6 mice, blood; iv, 18.5 MBq).
C[C@@](O)(C(F)F)[C@H](NC(=O)c1ccc(C#CC#CC2CC2)cc1)C(=O)NO has an AUC(0-inf) of 19.4 µg·h/mL (dog, plasma; oral, 50 mg/kg).
Under “subjects given concomitant medication”, CC(C)[C@H](NC(=O)CNC(=O)[C@H](CCC(N)=O)NC(=O)[C@H](C)N)C(=O)O is recorded as 0% (human; intravenous infusion, 90 mg/kg/h, 2 h infusion).
The adverse events of [2H]C([2H])([2H])C([2H])([2H])C([2H])([2H])OC(C(=O)OC1CCNCC1)(c1ccccc1)c1ccccc1 is reported as 14.3% (refers to: headache; healthy Japanese male; oral, 10 mg, 16 days, multiple ascending dose).
CC(C)C[C@H](NC(=O)[C@H](Cc1ccccc1)NC(=O)CNC(=O)C/C=C(\F)[C@@H](N)Cc1ccc(O)cc1)C(=O)O — result for “time to undetectable level”: no more than 10 min (BALB/c mice, brain; oral, 400 mg/kg).
The revertants of CCC(=O)N(C)c1ccc(Cl)c(Cl)c1 is reported as 78 ± 13.1 revertants/plate (Salmonella typhimurium; Ames test; TA100; 0.10 mg/plate, with rat liver S9).
Under “minimal haemolytic concentration”, CC[C@H](C)[C@H](NC(=O)[C@H](C)NC(=O)[C@@H](NC(=O)[C@H](CC(=O)O)NC(=O)[C@H](CCCCN)NC(=O)[C@H](CO)NC(=O)[C@@H](NC(=O)[C@H](CC(N)=O)NC(=O)[C@H](C)NC(=O)[C@@H](NC(=O)[C@H](CCC(=O)O)NC(=O)[C@H](CCCCN)NC(=O)[C@@H](NC(=O)[C@@H](NC(=O)[C@H](Cc1c[nH]cn1)NC(=O)[C@H](CCCCN)NC(=O)[C@@H](NC(=O)[C@H](CCCCN)NC(=O)[C@H](CCCCN)NC(=O)[C@@H](NC(=O)[C@H](CC(C)C)NC(=O)[C@H](CCCCN)NC(=O)[C@H](CC(N)=O)NC(=O)[C@H](Cc1ccccc1)NC(=O)[C@H](CCCNC(=N)N)NC(=O)[C@H](CCCCN)NC(=O)[C@H](CCCNC(=N)N)NC(=O)[C@H](Cc1ccccc1)NC(=O)CN)C(C)C)C(C)C)[C@@H](C)O)[C@@H](C)CC)[C@@H](C)O)C(C)C)C(C)C)C(=O)N[C@H](C(=O)N[C@@H](C)C(=O)NCC(=O)N[C@@H](CO)C(=O)NCC(=O)N[C@H](C(=O)N[C@@H](C)C(=O)N[C@H](C(=O)NCC(=O)N[C@@H](C)C(=O)N[C@@H](C)C(=O)N[C@@H](CCSC)C(N)=O)C(C)C)C(C)C)C(C)C is recorded as greater than 1020 mg/L (human erythrocytes).
With COc1cc2ccnc(Cc3ccc(O[11CH3])c(OC)c3)c2cc1OC the peak SUV was 2.2 (PET; rhesus macaque, cerebellum; intravenous, 3 min).
Under “heart to liver ratio”, CCNc1cc2[o+]c3cc(NCC)c(C)cc3c(-c3ccccc3C(=O)OCCOCC[18F])c2cc1C is recorded as 1.2 (PET; rat; 5 min p.i.).
CC[C@H](C)C(=O)N1CCC(NC(=O)Nc2ccc(OC(F)(F)F)c(F)c2)CC1 has a Cmax of 55.6 ng/mL (human; oral, 8 mg, fed, geometric mean).
N=C(N)NCCC[C@@H]1NC(=O)[C@H](CCCCNC(=O)CC[C@H](NC(=O)CCOCCOCCOCCOCCNC(=O)CN2CCN(CC(=O)O)CCN(CC(=O)O)CCN(CC(=O)O)CC2)C(=O)NCCCC[C@@H]2NC(=O)[C@@H](Cc3ccccc3)NC(=O)[C@H](CC(=O)O)NC(=O)CNC(=O)[C@H](CCCNC(=N)N)NC2=O)NC(=O)[C@@H](Cc2ccccc2)NC(=O)[C@H](CC(=O)O)NC(=O)CNC1=O [indium-111 labelled] — result for “tumour to tissue ratio”: 3.95 ± 0.77 (athymic nude mice, female, U-87 MG glioma xenograft, tumour and lungs; intravenous, 24 h; reference: tumour over lungs).
With CCOP(=O)(OCC)OCCCCOC(=O)CC1=C(C)/C(=C/c2ccc([S+](C)[O-])cc2)c2ccc(F)cc21 (stereo not shown) the Tmax was 4 h (rat, blood; topical, 50 mg/kg, PSH vehicle).
The Cmax of CCc1c2c(nc3ccc(OC4OC(C(=O)O)C(O)C(O)C4O)cc13)-c1cc3c(c(=O)n1C2)COC(=O)C3(O)CC (stereo not shown) is reported as 113 ng/mL (human patients, plasma; intravenous, 100 mg/m^2 of parent drug).
For CC[C@H](C)[C@H](NC(=O)[C@@H](NC(=O)[C@H](CC(=O)O)NC(C)=O)[C@@H](C)O)C(=O)N[C@@H](CCCNC(=N)N)C(=O)N[C@@H](CC(C)C)C(=O)N[C@@H](CC(C)C)C(=O)N[C@@H](Cc1ccccc1)C(=O)N[C@@H](CCC(N)=O)C(=O)N[C@@H](CC(C)C)C(=O)N[C@@H](CCSC)C(=O)N[C@@H](CCCNC(=N)N)C(=O)N1CCC[C@H]1C(=O)N1CCC[C@H]1C(=O)N[C@@H](CC(N)=O)C(=O)N[C@@H](CCSC)C(=O)N[C@H](C(=O)N1CCC[C@H]1C(=O)N[C@@H](C)C(=O)N[C@H](C(=O)N[C@@H](CC(N)=O)C(=O)N[C@@H](C)C(N)=O)C(C)C)[C@@H](C)O, “antigen-experienced tetramer+ cells” read 0 to 8% (PBMC CD4 T cells, HLA-DR1 placebo children; dose not given).
